Results from different studies.
A part holds a random share of what one study measured. Substitutions count along the parent as printed.

Series 1
Target: Interferon regulatory factor 3, full length, phosphomimetic (IRF3, Homo sapiens, UniProt Q14653, residues 1-427, S386D/S396D/S398D/S402D/T404D/S405D)
Chain of UniProt Q14653 (whole entry, unmodified, looked up): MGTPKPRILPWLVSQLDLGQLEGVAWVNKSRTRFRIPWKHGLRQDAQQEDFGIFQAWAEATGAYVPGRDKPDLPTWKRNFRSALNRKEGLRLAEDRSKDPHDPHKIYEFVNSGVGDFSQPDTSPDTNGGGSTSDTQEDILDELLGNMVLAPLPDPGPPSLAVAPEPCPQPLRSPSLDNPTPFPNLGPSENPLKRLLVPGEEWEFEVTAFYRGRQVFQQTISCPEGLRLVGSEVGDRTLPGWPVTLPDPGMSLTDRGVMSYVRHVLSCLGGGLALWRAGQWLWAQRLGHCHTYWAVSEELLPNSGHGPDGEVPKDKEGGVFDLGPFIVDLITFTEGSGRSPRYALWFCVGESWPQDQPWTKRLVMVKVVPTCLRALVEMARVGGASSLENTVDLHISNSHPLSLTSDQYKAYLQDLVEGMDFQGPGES
Technique: protein-binding microarray
Molecule type: double-stranded DNA, one strand shown
Matrix: in vitro
Concentration: 2540 nM top
Notes: 60-bp whole probe
With: salmon DNA 0.4 mg/ml
Reference: random background probes
Reading: higher = stronger binding
All sequences stand within: GCCTAGCAC … GTCTTGATTCGCTTGACGCTGCTG
| Sequence | fitted relative affinity |
| --- | --- |
| TTACGTATCGGGTATCGGTTAGTGCTA | 2.21 z-score |
| GACCATATCAGTATCGAGACGTGCTAG | 1.98 z-score |
| AGGAATTTCCCACTTTCACTGTGCTAG | 2.53 z-score |
| TTAGGTTTCGGTCTAGGTTAGTGCTAG | 7.3 z-score |
| TTAGGTTTCGGGTATGGGTTAGTGCTA | 4.05 z-score |
| TTAAGTATCGGTCTCGGTTAGTGCTAG | 5.08 z-score |
| TTAGGTTTCGACTATTGGTTAGTGCTA | 2.09 z-score |
| GACGAGCTCAGTATCGAGACGTGCTAG | 0.218 z-score |
| TATTATATATTTATGTATACGTGCTAG | 0.747 z-score |
| CTCATTCTCTGTTTATGTCTGTGCTAG | 2.52 z-score |
| TTAGATATCAGACAGGATTAGTGCTAG | -0.169 z-score |
| TGAGGTATCGGTATCGGTTAGTGCTAG | 5.18 z-score |
| TGAGAACTGAGTCTCGATTAGTGCTAG | -0.463 z-score |
| TCAATTTTGCTTCTAGAACTGTGCTAG | 1.15 z-score |
| GACGATTTCAGACTGGAGAAGTGCTAG | 1.05 z-score |
| TCATCTCTCAAAAGTCACACTGTGCTA | 1.04 z-score |

Series 2
Target: RING finger protein unkempt homolog, zinc fingers 1-6, GST-SBP tag (UNK, Homo sapiens, UniProt Q9C0B0, residues 30-357)
Technique: RNA Bind-n-Seq
Molecule type: RNA
Matrix: in vitro
Concentration: not given
Notes: RNA with constant flanks, ends assumed
Reference: input RNA pool
Reading: higher = stronger binding
All sequences stand within: GGGAGUUCUACAGUCCGACGAUC … CAACAGAGGAUUGAGCAUCA
Target sequence (chain): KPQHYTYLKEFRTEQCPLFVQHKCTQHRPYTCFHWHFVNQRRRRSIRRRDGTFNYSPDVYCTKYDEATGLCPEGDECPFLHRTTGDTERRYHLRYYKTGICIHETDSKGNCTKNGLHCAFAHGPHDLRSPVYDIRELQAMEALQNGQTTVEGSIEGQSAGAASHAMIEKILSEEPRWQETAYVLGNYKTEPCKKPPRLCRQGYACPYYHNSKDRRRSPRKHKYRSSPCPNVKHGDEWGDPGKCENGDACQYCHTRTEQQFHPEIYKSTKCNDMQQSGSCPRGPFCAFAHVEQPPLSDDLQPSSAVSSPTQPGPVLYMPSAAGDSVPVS
| Sequence | bound/input enrichment [ratio] |
| --- | --- |
| UAUGUAUAUCUCAAGCAAACCAAAAUGCAAUCUUCUGCUUUGUUCUGUUCUAAAUCAUUGCCGUUAUAUCUUUCUGAAACCAUUUUGCAUUUAGUUGAAAUUGUCAGUAUUUAUGCUUUU | 0.194 |
| GAAUCCAGUGAUUUGGUACAUGUUAAAUGGGAAUUAAAAAUCCAAAGACCCUGUAAUGAACCGUAAAGAUGAUGAUUUAUGUUGUAUGAGGAACCAAACUAUUGUAAUUUUGUACCAUAC | 0.102 |
| CUUACUCAUCAUUUAAAAACUAUAUUUACAGAAGAUGUUUGGUUGCUGGGGGGGCUUUUUCCGGUUUUGGGGCAUUUGUUUUUUGUAAAUAAGAUGAUUAUGCUUUGUGGCUAUCCAUCA | 0.517 |
| AGUGUAGUAUUUAUUUCUAAUUUGCCUAACAAAGGAUAUUCUACAGAAGAAAUUUACAACUCCGCAAAACCAUUUGGUGCUUUGAAGGACAUUUUGGUUUUAUCAUCUCAUAAAAAGGCA | 1.15 |
| CCCAUGGAGGCGUCCAGCGAGCCGCCGCUGGAUGCUAAGUCCGAUGUCACCAACCAGCUUGCCGAUUUUCAGUGGAAACUGGGUAUGGCUGUGAGCUCAGACACUUGCAGAUCUCUUAAG | 0.0939 |
| UUUAUAGAAAUCACUGAUGACCAGUUUGACUUUCAUACAUACUGUAUGAGGAAGAUUACCCUCCGAUCAUAUGUGGACUUAUUAAAACUAGAAGAUGUACUUCGACAGCAUCCAUUUUAC | 0.885 |
| AAUUUUAACCAAGAAUCUGAAGGUAGAAAUACAGGACCAUGGUUAUCUUCCUCACUCCGAAACCGAUGCACACCUUUGUUCUCUAGAAGGAGGCGAGAGGGAAGAGAUGAAUCUUCAAGG | 0.276 |
| GCAGAUGCUGAGGUUGCCAGGAGGAAAUCAGUCCCAUCAGAGGCUAUGCUUGCAGAGAGCCGUACCAGUUUGCCACCUGUCGCUGAUGAAAGCCCAGUCACUGUAAAACCAGAUAGUCAA | 0.177 |

Series 3
Target: RNA binding protein fox-1 homolog 2, RRM domain, GST-SBP tag (RBFOX2, Homo sapiens, UniProt O43251-10, residues 100-194)
Technique: RNA Bind-n-Seq
Molecule type: RNA
Matrix: in vitro
Concentration: 365 nM
Notes: natural RNA segment, single round, ends assumed
Reference: no-protein control
Reading: higher = stronger binding
All sequences stand within: GGGAGUUCUACAGUCCGACGAUC … UGGAAUUCUCGGGUGCCAA
Target sequence (chain): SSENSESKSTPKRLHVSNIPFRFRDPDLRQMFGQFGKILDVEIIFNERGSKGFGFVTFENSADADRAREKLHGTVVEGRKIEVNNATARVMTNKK
| Sequence | RBNS enrichment (R) |
| --- | --- |
| GCCACAGGCUGGAAGCUGACAGCCUAGCAGGCACUCCCUUCCUCUCUUCCUUCUGCUGUGUUCCUAUAGCCACUGGGCUAAUCUCCCCCUUGCUUUAGGCUGUAUAUAGC | 0.624 |
| CUUUACAGUGGACUCGGCCACUGUGCAUAGGCUUCUCUGCUCUCCAUCAAAUCACUUCCACUUUCCUGUGCCCCCACCCCCGCCUCCAGUUUUCCGCUAGUAUCCGGCAA | 0.905 |
| UUGCACACUUAUUUGUAAUGUUUCUUUUAAAUAAAAGUGACUAAUUUUGUUGUAGUCUGGACCUGUAUGGGAAGUAGAAUUGUGUGUUAUGAAGCCAAACACUCUUCCCC | 1.61 |
| UCUAAGGGCAAACAUUUUUCCAAGUCUUGCCAUAUUUCAAGCAAAGAGGUGCCCAGGCCUGAGGUACUCACAUAAAUGCUUUGUUUUGCUGGUGAUUUAACCAGUGCUUG | 0.657 |
| AAGGGACUUGCCUAAAGCCACCCAGCAACUCAGCAGCAGAACCAAGAUGGGCCCCAGGCUCCUCCAUAUGGCCCAGGGCUUACCACCCUAUCACACGUGGCCUUGUCUAG | 0.267 |
| CCUGGCACCUGGCUCUGGCCGUGUUUUCUGGCCAGAGGCCCCCACUUUCCUAACUCGUGCUCCCUUCCGCCUUCUUUUCCGUACUGUGAAGAAAGAACUCUCCACCCCAG | 0.53 |
| AAUGUCUGAUAAUCUGCAAAACAAAACCUACCAAAUGGAAUCAGGGGCGACAUCUCAGUCGGUCCGGCUGGCAUUGCGUUGCUUGGGCUACCUCCGAUGACAGAAACGUG | 0.278 |
| ACUUAAUUUUAAUGUAAUCAUGUCUAAUGAUCCUCAUCUUCAUUCCUUGAGAUUACCCAAGUACCGUCAUGACCAAGAAGCCUUUCCGUCAUUGAGUACCUGAUUUUUAA | 0.243 |

Series 4
Target: Histone acetyltransferase KAT6A, both winged helices, GST fusion (KAT6A, Homo sapiens, UniProt Q92794, residues 1-181)
Technique: protein binding microarray
Molecule type: double-stranded DNA, one strand shown
Matrix: in vitro
Concentration: not given
Notes: 8-mer, flanks averaged, mean of 2 arrays, mostly near background
Reference: not given
Reading: higher = stronger binding
Target sequence (chain): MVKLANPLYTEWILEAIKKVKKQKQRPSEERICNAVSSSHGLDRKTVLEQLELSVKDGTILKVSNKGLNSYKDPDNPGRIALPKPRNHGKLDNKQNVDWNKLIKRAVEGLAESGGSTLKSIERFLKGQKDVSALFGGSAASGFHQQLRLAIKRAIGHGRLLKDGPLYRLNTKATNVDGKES
| Sequence | E-score |
| --- | --- |
| GTGTATTA | -0.0662 |
| CTAACATA | -0.162 |
| CGCCAGAC | 0.109 |
| GTTGCCTA | -0.14 |
| AAAGTGTG | -0.128 |
| AGTTGTCG | -0.0224 |
| CAGTATTC | -0.0131 |
| AGGGTGCA | -0.247 |
| AATTGTAC | -0.0299 |
| GCCCCTGA | -0.208 |
| CATGACCC | 0.00208 |
| GGCATTAA | -0.05 |
| GTTTTAAA | -0.141 |

Series 5
Target: CCNA2, cyclin fold, Cln2 fusion (human)
Technique: yeast growth competition, sequencing
Matrix: yeast
Notes: strong parent motif
Reference: not given
Reading: higher = stronger binding
Starting sequence: WEE1 docking peptide (human); HKTFRKLRLFDTP
| Substitution | normalised enrichment score |
| --- | --- |
| H1Y | 1.24 |
| L7E | 1.24 |
| L7K | 1.31 |
| T12W | 1.72 |
| F10W | 1.68 |
| R5E | 1.71 |
| K6R | 1.69 |
| R8Y | 3.49 |
| T3M | 1.5 |
| P13V | 2.1 |
| T3P | 2.12 |
| L7S | 0.289 |
| L7D | 0.268 |
| D11F | 1.46 |

Some of these lines once more (series 1):
| Sequence | fitted relative affinity |
| --- | --- |
| TTACGTATCGGGTATCGGTTAGTGCTA | 2.21 z-score |
| GACCATATCAGTATCGAGACGTGCTAG | 1.98 z-score |
| AGGAATTTCCCACTTTCACTGTGCTAG | 2.53 z-score |
| TTAGGTTTCGGTCTAGGTTAGTGCTAG | 7.3 z-score |
| TTAGGTTTCGGGTATGGGTTAGTGCTA | 4.05 z-score |
| TTAAGTATCGGTCTCGGTTAGTGCTAG | 5.08 z-score |
| TTAGGTTTCGACTATTGGTTAGTGCTA | 2.09 z-score |
| GACGAGCTCAGTATCGAGACGTGCTAG | 0.218 z-score |
| TATTATATATTTATGTATACGTGCTAG | 0.747 z-score |
